Literature values that unrelated publications cite.
Protocols differ between the studies behind these lines. ± marks the error that the study gave.
Cell line: MCF7

| SMILES | assay | setting | endpoint | value |
| --- | --- | --- | --- | --- |
| COc1cc2c3c(n(CCCN4CCOCC4)c(=O)c2cc1OC)-c1cc2c(cc1C3=O)OCO2 | – | 72 h | IC50 | 560 nM |
| CC(F)(F)c1cc(F)ccc1-c1sc2cc(O)ccc2c1Oc1ccc(/C=C/C(=O)O)cc1 | cell growth | – | IC50 | 0.7 nM |
| C[C@H]1COCCN1c1nc(-c2cnc(N)cc2C(F)F)nc(N2CCOCC2)n1 | – | – | GI50 | 97 nM |
| CC(C)(c1ccc(O)cc1)c1ccc(O)cc1 | cell proliferation | 10% FBS | EC50 | 200 nM |
| CC/C(=C(\c1ccccc1)c1ccc(OCCN(C)C)cc1)c1ccccc1 | – | concentration not given, with: insulin stimulation | cell proliferation | no effect |
| COc1cccc2c1C(=O)c1c(O)c3c(c(O)c1C2=O)C[C@@](O)(C(=O)CO)C[C@@H]3O[C@H]1C[C@H](N)[C@H](O)[C@H](C)O1 | – | – | IC50 | 540 nM |
| O=c1c(-c2ccc(O)cc2)coc2cc(O)cc(O)c12 | cell proliferation | 5% FBS | EC50 | 300 nM |
| O=c1[nH]cc(F)c(=O)[nH]1 | – | – | IC50 | 2700 nM |
| c1cnc2c(c1)ccc1cccnc12 | cell growth | – | IC50 | 6100 ± 500 nM |

Repeated from above:
| SMILES | assay | setting | endpoint | value |
| --- | --- | --- | --- | --- |
| CC(C)(c1ccc(O)cc1)c1ccc(O)cc1 | cell proliferation | 10% FBS | EC50 | 200 nM |
